Experimental data of several laboratories.
A part holds a random share of what one study measured.

Block 1 — technique: protein-binding microarray; molecule type: double-stranded DNA, one strand shown; sample: in vitro; concentration: 250 nM; setting: 60-bp whole probe; together with: salmon DNA 0.4 mg/ml; relative to: random background probes; reading: higher = stronger binding; endpoint: log fluorescence; shared flanks, not repeated: GCCTAGCAC … GTCTTGATTCGCTTGACGCTGCTG
Target: Interferon regulatory factor 5, full length, phosphomimetic (IRF5, Homo sapiens, UniProt Q13568-2, residues 1-514, K96S/S451D/S453D/S456D/S462D)
GGGAACTTAAACCTCTAAAGGTGCTAG: -0.185 z-score
TTAGATATCGGGACTGGTTTAGTGCTA: 1.21 z-score
GACGGTTTCGGACTGAGGACGTGCTAG: 4.08 z-score
TTAGGCTTCGGTCTCGGTTAGTGCTAG: 1.27 z-score
TTAGATTTCAGACTGGAGTAGTGCTAG: 0.333 z-score
TCACATTTATTTACTCTCACTGTGCTA: 1.22 z-score
TTAGGACTGCTTATCCATTAGTGCTAG: -0.316 z-score
TTAGGTTCCCTTTCCCTTTAGTGCTAG: 0.994 z-score
TCAACTCTGCCTCTAACACTGTGCTAG: 0.0944 z-score
TTAGGTAGCCTTATCCTTTAGTGCTAG: -0.453 z-score
TCAAGTCCCTATCTCCTACTGTGCTAG: 0.000799 z-score
AAACCATTTTTTTTCACTATGTGCTAG: 1.9 z-score
TTAGTTATCGGTATCGGTTAGTGCTAG: 9.54 z-score
GACGGTAGCGACTTTCGGGACGTGCTA: 4.85 z-score
CATTGCCTATTTTTCCCCTGGTGCTAG: 0.449 z-score
TTAGATTTCGGGTTTCGAGTAGTGCTA: 6.53 z-score
GCCGGTTTCGACACTGGGGACGTGCTA: 5.69 z-score
TTAGGTATCGGGTAGCGGTTAGTGCTA: 4.01 z-score
TCAACTCTGAACCTTCAGACTGTGCTA: -0.0611 z-score
GACGGTCTCGGTACCGGGACGTGCTAG: 0.126 z-score
TTAGGACTGCTTCTCCATTAGTGCTAG: -0.187 z-score
GACGACATCAGACTGGAGACGTGCTAG: -0.367 z-score
TTAGGTCCCCTTATCCTTTAGTGCTAG: -0.194 z-score
CTAGGTTTCCTTTCCCTTTAGTGCTAG: 1.68 z-score
TTACGTATCGGGACTGGGTTAGTGCTA: 2.54 z-score

Block 2 — technique: RNA Bind-n-Seq; molecule type: RNA; sample: in vitro; concentration: 365 nM; relative to: no-protein control; reading: higher = stronger binding; endpoint: RBNS enrichment (R)
Target: RNA binding protein fox-1 homolog 2, RRM domain, GST-SBP tag (RBFOX2, Homo sapiens, UniProt O43251-10, residues 100-194)
Setting: natural RNA segment, single round, ends assumed
Construct (chain): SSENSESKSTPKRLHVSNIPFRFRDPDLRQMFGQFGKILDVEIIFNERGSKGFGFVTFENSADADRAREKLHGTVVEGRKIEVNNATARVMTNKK
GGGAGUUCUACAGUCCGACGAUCGUAUAGAUUUCUAAGAACCAACACUACUCAGUCUCCUGCUAGUCUGACUCCUGAAGCAUCAGCCCUUGUCAUACUGUAUUGACUGUGUACGUGCCUUUCACCUUGAGCAUUGGAAUUCUCGGGUGCCAA: 0.304
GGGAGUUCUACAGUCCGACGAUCAGCGGUUUAUUAAGCUCUUCUAUAUUAAACACUAAUAGAUAUUCAAUAACGGAGUAAACUGUUCCAGAUAAAGCAAGAAUAGUUGCAAGAAGUAAAUUCUGGCACAAAGCUGGAAUUCUCGGGUGCCAA: 0.449
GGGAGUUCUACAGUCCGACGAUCGUUUUUGGUUGAUAGUUGAGCAAACUGACAUUACAGAAAGUGCCUUAGACACUACAGUACUAAGACAAUGUUAAAUAUAUUAUUUGCCUCUAUAACAACUUAAUGUAUUAUGGAAUUCUCGGGUGCCAA: 0.364
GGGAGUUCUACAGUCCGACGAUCCGUCGUGAGUGUCAAAUGUGUCCCACUCCUCCCUAGAAGUUAUGAACACUACACACAGUCAAUAAAGCGAAUGGACCUUGCUGAGUCUGCUGGCCCAGCCCCUGAACCCAUGGAAUUCUCGGGUGCCAA: 0.314
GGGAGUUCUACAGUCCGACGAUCGACCGCAGCUUCUGGAGCCAGGGGUGCAGACCCUUCCAGAGUUCCCAGACCGUGUGACACAGCACAGCCUCCUUAAUGACACGUUGCCAUGUAACGCACCUGUAACUUAUUGGAAUUCUCGGGUGCCAA: 0.413
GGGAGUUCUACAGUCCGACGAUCCGUCAGCUCUUCCAGGACCUGGAGCGCUACGUGCAGGACGCCGAUGUGCGCUGGGAGUACUGCGUGCGCGCCAAGCGCGGCCAGACCGACACCUCGCUGCCAGGUUGUUUUGGAAUUCUCGGGUGCCAA: 0.42
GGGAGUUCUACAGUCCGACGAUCAGCAAGAGUUGAGGUGAAGCAACUAAAGCACCGUAUAAGCCAGCAAGGCGCACAGAGCUGCUCCUGCCUAUGUGAUCUUUAAGUAGACCAGGAGCCAGGAAACCACUUUAUGGAAUUCUCGGGUGCCAA: 0.875
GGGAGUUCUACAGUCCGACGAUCAAUUCACUAGGUAGUUGUUGUUGGUUGACUUGGAGGUAGCUGGGUAAUCAACAGCUUUCACUUUAGAUUCAAUGUGAACCGCAGAGUUACUCAUGACCAAGAGUCUGGCAUGGAAUUCUCGGGUGCCAA: 0.574
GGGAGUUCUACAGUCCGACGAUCUAUUUGUGUGGAUUCUGCUCAUCACUGUCUCUGUUAGACUUAUUUUGUAGUGGCUGCAUCACAUAUUUUUCACUUGAAUUUUUUUGGAAAUAGCUGAAUGUAAAUAGCAGUGGAAUUCUCGGGUGCCAA: 1.34
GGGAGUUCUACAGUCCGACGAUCAAGACUGAGUGUUCAAACUACUGUACAUUUUUUUUCAAGUGCUAAAAAAUUAAACCAAGCAGCUUAACCAUGGUUUGUGCCUGUUCCUCUAGGAUGAACUCCUAUCCUGAUGGAAUUCUCGGGUGCCAA: 0.541
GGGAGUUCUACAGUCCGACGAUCGCUUUGGGGUGUGGCCUGUGACUGUGUUUCCCAGGUGGGGACCAGAAGAUGUCUGAGGUCCUCCUGAGCCCUGAAAUCUUGAUAAUCAGGAAUACCCAGGGUGGUGGGACUGGAAUUCUCGGGUGCCAA: 0.314
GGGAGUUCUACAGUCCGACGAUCAAAAUUUGGAAAUGUAUGCCAGCAAAAUGUGAGCUCUGUAUUUUUUGGCAUUCUUAUGUUUGGGUUUAAUAAGAUUAAGAAAAUGAUACUGGGAAUUUUCUUUUUCCUGAUGGAAUUCUCGGGUGCCAA: 7.03

Block 3 — technique: protein-binding microarray; molecule type: double-stranded DNA, one strand shown; sample: in vitro; concentration: not given; reading: higher = stronger binding; endpoint: E-score
Target: Protein C-ets-1 (ETS1, Homo sapiens, UniProt P14921, residues 1-441, Y397A, full length assumed)
Setting: k-mer, scored over probes, only values ≥0.25
Construct (chain): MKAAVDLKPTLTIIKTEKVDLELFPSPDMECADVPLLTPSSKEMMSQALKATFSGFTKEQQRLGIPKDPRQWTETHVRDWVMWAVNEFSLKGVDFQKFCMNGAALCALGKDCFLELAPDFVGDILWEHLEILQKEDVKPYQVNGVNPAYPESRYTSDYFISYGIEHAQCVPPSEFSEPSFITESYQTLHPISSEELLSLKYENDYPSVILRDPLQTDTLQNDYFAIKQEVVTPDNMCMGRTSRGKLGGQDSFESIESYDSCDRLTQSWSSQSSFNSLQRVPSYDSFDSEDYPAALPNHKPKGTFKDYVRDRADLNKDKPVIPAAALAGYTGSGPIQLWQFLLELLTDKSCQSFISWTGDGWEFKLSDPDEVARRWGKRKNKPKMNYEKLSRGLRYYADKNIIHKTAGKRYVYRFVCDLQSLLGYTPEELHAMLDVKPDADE
GAGTGACA: 0.317
ATTGCAAC: 0.301
TGCCAACA: 0.309
ATTTGCCA: 0.386
CGGCAAAG: 0.27
CGATTGCC: 0.277
CAATCGCG: 0.27
ACATCCTG: 0.261
ATTTGTCA: 0.404
CTTTGGCA: 0.257
CCAACAAA: 0.29
AACGTACA: 0.258
GAACATCC: 0.285
CACTTCCA: 0.292
ACGCAACA: 0.321
CCCGCCCC: 0.383

Block 4 — technique: protein binding microarray; molecule type: double-stranded DNA, one strand shown; sample: in vitro; concentration: not given; relative to: not given; reading: higher = stronger binding; endpoint: E-score
Target: Histone acetyltransferase KAT6A, winged helix 1, GST fusion (KAT6A, Homo sapiens, UniProt Q92794, residues 1-85)
Setting: 8-mer, flanks averaged, mean of 2 arrays, mostly near background
Residues (chain): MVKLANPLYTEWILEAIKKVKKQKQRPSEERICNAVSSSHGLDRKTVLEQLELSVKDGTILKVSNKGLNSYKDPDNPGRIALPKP
AACCTGGA: -0.249
GTTGTTAA: 0.033
GAGCGAGC: 0.122
ATTAATAG: -0.126
GAGTGTAC: 0.00654
AGCCCGGG: 0.301
CGAAAGTC: -0.0202
ATTTAAGC: -0.0687
CTTTGTAC: -0.196
CACTAAAA: -0.158
CAAGCGTG: 0.117
TCGCTACA: -0.0171
AAGAATGC: -0.195
CGGTGATA: 0.0926
CATACTCA: -0.213
AAATTCTT: -0.11
GCGTACAA: -0.0144
TCTGTAAA: 0.0921
GGGACAGA: 0.0316
CTTTCAGC: 0.135

A few entries again (block 1):
CTAGGTTTCCTTTCCCTTTAGTGCTAG: 1.68 z-score
TTAGATTTCGGGTTTCGAGTAGTGCTA: 6.53 z-score
TTAGATATCGGGACTGGTTTAGTGCTA: 1.21 z-score
TTAGGTCCCCTTATCCTTTAGTGCTAG: -0.194 z-score
TTAGGCTTCGGTCTCGGTTAGTGCTAG: 1.27 z-score
TCACATTTATTTACTCTCACTGTGCTA: 1.22 z-score
GACGGTTTCGGACTGAGGACGTGCTAG: 4.08 z-score
GGGAACTTAAACCTCTAAAGGTGCTAG: -0.185 z-score
